# Measurements of several laboratories.
# Each line is one published result; not all experiments were run side by side. ± marks the error that the study gave.
SMILES,target or system,test,test system,conditions,scale,endpoint,value
Cc1ncsc1-c1ccc(C(C)NC(=O)C2CC(O)CN2C(=O)C(NC(=O)CCCCCCCCCCN2CCCC(Nc3ncc(Cl)c(Nc4ccccc4S(=O)(=O)C(C)C)n3)C2)C(C)(C)C)cc1 (stereo not drawn),22Rv1,"RNA-seq, item: TNS4 mRNA",,concentration not given,baseline: DMSO,log2 fold change,-3.17
C=C(NC(=O)C(=C)NC(=O)c1csc(C2=N[C@@H]3c4csc(n4)[C@H]4NC(=O)c5csc(n5)[C@H]([C@](C)(O)[C@@H](C)O)NC(=O)[C@H]5CSC(=N5)/C(=C/C)NC(=O)[C@H]([C@@H](C)O)NC(=O)c5csc(n5)[C@]3(CC2)NC(=O)[C@H](C)NC(=O)C(=C)NC(=O)[C@H](C)NC(=O)[C@H]([C@@H](C)CC)N[C@@H]2C=Cc3c([C@H](C)O)cc(nc3[C@H]2O)C(=O)O[C@@H]4C)n1)C(N)=O,H-MESO-1,"cell viability, crystal violet",,"24 h exposure, 48 h total",,EC50,0.72 µM
CN1CC[C@@H](COc2cnc(C#N)cc2-c2ccn3nc(NC(=O)C4CC4)cc3c2)C1,wild-type littermate mouse BMDC,"IL-10 release, inducer",,"4 h, added: LPS",,EC50,0.62 µM
COC1CN([C@H]2CC[C@H]([C@@]3(C)Oc4c(Cl)cc(C(=O)NCc5c(SC)cc(C)[nH]c5=O)c(C)c4O3)CC2)C1,,"RNA-seq, item: LRRC2 mouse homolog","mouse, HT-1376 xenograft, whole blood",dose not given,baseline: vehicle,log2 fold change,2.52
C=CC(=O)N1[C@@H](c2ccc3c(c2)OCO3)c2[nH]c3ccccc3c2C[C@H]1C(=O)NC1CC1,rat DRG neurons,neurite degeneration,,"48 h, added: vincristine 40 nM",,EC50,2.73 µM
Nc1ncc(-c2cc(-c3cnn(CC(F)(F)F)c3)ncc2F)nc1C(=O)NC1CNCC(F)C1 (stereo not drawn),NDR2,KINOMEscan,,1 µM,baseline: DMSO control,remaining binding,66%
Cc1ccncc1.[Cl-].[Cl-].[Ru+2].c1cc(-c2ccc3cccnc3n2)nc(-c2ccc3cccnc3n2)c1.c1ccc2cc3nc4c5cccnc5c5ncccc5c4nc3cc2c1,SK-MEL-28,cell viability,,dark,,EC50,79.6 ± 2.5 µM
CNS(=O)(=O)Nc1nccc(Cc2c(C)c3ccc(Oc4ncccc4F)cc3oc2=O)c1F,KALS-1,cell viability,,7 days,,IC50,> 1 µM
CCc1cnc(N2CCC(c3nc(COc4ccc(-n5cnnn5)cc4)cs3)CC2)nc1,HEK-293T ATF4-FLuc reporter,"reporter gene, activator, item: ATF4-FLuc",,,,EC50,3.6 µM
C=C(NC(=O)c1csc(-c2cccnc2)n1)C(=O)NC(=C)C(=O)OC,H-MESO-1,"cell viability, crystal violet",,48 h,,EC50,4 ± 0.4 µM
CN1CCCNC(=O)c2cccc(c2)C(=O)NCCCN(C)CCCNc2cccc3c2C(=O)c2cccc(c2C3=O)NCCC1,SAS,"RNA-Seq, item: ATP2A2 mRNA",,"1 µM, 6 h",baseline: untreated cells,log2 fold change,-0.494
CC(=O)N[C@@H](CC[S+](C)[Ru-4]123([S+](C)CC[C@H](NC(C)=O)C(=O)O)[n+]4ccc5ccccc5c4Nc4cccc([n+]41)-c1cccc([n+]12)Nc1c2ccccc2cc[n+]13)C(=O)[O-].F[P-](F)(F)(F)(F)F (stereo partly drawn),MRC-5,"photocytotoxicity, SRB",,"6 h, added: green light",,EC50,< 1 µM
O=c1[nH]nc(OCCCc2ccc(Cl)cc2)c(NCc2cccnc2)c1Br,HEK-293T ATF4-FLuc reporter,"reporter gene, activator, item: ATF4-FLuc",,8 h,,EC50,6.2 µM
Cc1cc(C)nc(NC(=S)N2CCN(c3ccncc3)CC2)c1,HCC70,"cell viability, CellTiter-Glo",,4 days,,EC50,> 100 µM
C=C(NC(=O)c1csc(-c2ccc(NC(=O)CCCCCBr)cc2)n1)C(=O)NC(=C)C(=O)OC,H-MESO-1,"cell viability, crystal violet",,"3 h exposure, 48 h total",,EC50,1.4 µM
Cc1nc(NCCOCCOCCNc2ncc(C(=O)NC3=NN(c4ccc(Cl)c(Cl)c4)CC3)c(C)n2)ncc1C(=O)NC1=NN(c2ccc(Cl)c(Cl)c2)CC1,BV-173,"cell growth or viability, ATP luminescence",,72 h,,EC50,0.149 µM
CC[C@H]1CN([C@@H](CC)c2ccc(C(F)(F)F)cc2)[C@H](CC)CN1c1nc(=O)n(C)c2ccc(C#N)nc12,CD4+ T cells,"phospho-ERK amplification, flow cytometry",human whole blood,added: suboptimal anti-CD3,,EC50,0.008 µM
C=CC(=O)Nc1cccc(Cn2ncc3cnc(Nc4cnn(CCOC)c4)nc32)c1,EPHB6 human,"binding, KINOMEscan",,100 nM,lower = stronger binding,percent of control,29%

# Some of these lines once more:
SMILES,target or system,test,test system,conditions,scale,endpoint,value
C=C(NC(=O)c1csc(-c2ccc(NC(=O)CCCCCBr)cc2)n1)C(=O)NC(=C)C(=O)OC,H-MESO-1,"cell viability, crystal violet",,"3 h exposure, 48 h total",,EC50,1.4 µM
